# Measured values pooled from the literature.
# Numbered parts are unrelated; each lists some results of a single study.
# Chain of UniProt O95747 (whole entry, looked up): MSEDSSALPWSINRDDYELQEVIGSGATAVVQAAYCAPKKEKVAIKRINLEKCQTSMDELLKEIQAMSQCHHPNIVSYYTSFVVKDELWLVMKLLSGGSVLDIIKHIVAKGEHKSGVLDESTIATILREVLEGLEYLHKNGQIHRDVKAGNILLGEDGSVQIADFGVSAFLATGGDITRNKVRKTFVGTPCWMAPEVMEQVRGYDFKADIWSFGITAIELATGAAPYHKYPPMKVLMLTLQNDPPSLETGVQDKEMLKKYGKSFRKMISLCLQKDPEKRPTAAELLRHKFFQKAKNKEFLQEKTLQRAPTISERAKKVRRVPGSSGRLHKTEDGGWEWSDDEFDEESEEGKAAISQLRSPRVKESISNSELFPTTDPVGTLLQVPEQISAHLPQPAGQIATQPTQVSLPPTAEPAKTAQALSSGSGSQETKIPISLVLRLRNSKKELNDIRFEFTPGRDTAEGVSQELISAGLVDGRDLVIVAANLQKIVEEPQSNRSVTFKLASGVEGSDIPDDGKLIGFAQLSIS
# Chain of UniProt Q99705 (whole entry, looked up): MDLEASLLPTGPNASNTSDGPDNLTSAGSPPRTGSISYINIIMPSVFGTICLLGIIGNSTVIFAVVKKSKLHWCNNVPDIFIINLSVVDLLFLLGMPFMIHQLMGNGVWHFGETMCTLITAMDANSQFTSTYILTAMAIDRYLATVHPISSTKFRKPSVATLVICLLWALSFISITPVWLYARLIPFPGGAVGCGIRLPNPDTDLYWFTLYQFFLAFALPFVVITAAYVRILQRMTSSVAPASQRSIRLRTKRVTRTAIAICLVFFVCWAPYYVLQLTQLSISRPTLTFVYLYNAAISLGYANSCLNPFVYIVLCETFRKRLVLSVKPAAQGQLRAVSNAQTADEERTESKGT
# Chain of UniProt P51955 (whole entry, looked up): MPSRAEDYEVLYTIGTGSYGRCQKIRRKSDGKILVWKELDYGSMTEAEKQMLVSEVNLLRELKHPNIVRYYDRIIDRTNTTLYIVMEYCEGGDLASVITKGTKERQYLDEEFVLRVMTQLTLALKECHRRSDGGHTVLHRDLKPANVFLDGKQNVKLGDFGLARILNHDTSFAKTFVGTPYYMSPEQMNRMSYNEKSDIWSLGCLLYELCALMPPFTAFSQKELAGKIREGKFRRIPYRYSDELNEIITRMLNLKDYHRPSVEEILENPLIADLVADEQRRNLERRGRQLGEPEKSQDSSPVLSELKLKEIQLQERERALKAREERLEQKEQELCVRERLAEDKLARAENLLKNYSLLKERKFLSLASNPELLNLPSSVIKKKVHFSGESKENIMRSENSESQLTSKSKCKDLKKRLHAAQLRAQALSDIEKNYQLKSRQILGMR
# Chain of UniProt Q9UKI8 (whole entry, looked up): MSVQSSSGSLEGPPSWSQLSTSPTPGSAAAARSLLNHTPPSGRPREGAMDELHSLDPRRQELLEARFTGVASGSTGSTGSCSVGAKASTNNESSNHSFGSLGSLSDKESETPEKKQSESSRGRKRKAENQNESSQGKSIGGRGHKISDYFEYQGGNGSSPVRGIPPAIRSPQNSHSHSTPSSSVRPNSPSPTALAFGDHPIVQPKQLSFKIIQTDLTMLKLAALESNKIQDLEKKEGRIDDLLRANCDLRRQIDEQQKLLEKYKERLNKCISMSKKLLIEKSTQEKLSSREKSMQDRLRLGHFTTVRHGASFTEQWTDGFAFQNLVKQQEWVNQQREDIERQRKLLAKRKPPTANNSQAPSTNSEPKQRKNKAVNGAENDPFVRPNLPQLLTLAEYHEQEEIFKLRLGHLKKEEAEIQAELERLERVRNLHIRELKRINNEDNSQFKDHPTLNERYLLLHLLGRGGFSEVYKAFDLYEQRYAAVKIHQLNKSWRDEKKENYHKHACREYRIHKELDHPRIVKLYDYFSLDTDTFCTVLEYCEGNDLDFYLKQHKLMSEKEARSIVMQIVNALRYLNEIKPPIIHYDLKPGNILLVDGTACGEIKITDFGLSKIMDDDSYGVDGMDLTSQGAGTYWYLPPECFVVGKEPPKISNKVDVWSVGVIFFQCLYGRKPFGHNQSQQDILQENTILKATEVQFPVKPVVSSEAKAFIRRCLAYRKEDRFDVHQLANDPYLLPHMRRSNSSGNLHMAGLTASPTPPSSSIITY
# Chain of UniProt P80192 (whole entry, looked up): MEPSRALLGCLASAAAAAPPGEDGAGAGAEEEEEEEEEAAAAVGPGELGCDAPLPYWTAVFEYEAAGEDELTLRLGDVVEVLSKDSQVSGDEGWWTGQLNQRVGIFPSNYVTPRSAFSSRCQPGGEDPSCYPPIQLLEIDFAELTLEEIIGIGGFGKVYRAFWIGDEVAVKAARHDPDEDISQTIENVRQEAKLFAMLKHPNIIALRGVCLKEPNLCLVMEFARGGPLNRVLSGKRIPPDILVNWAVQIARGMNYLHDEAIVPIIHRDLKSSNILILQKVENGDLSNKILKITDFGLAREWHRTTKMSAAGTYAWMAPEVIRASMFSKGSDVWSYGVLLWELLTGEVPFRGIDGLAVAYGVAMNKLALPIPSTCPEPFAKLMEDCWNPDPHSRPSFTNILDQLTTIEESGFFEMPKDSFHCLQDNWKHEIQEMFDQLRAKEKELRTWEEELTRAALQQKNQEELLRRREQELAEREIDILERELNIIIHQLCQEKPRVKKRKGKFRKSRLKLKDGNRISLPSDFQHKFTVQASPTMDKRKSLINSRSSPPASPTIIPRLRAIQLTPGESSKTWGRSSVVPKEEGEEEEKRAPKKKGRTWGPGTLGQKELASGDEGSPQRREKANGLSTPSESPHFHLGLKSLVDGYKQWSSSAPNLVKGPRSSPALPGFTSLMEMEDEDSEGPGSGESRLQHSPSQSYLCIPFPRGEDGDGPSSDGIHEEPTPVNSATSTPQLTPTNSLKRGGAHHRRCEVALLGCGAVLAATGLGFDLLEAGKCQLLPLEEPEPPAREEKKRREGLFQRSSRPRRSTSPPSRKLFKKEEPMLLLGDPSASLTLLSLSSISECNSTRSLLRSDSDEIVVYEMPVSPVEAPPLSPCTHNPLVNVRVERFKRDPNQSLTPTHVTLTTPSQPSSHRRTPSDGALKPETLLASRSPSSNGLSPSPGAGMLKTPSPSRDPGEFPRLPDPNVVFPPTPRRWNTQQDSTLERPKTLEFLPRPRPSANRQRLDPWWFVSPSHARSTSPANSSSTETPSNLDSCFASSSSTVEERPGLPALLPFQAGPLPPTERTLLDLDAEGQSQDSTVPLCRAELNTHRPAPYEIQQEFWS
# Chain of UniProt Q8N5S9 (whole entry, looked up): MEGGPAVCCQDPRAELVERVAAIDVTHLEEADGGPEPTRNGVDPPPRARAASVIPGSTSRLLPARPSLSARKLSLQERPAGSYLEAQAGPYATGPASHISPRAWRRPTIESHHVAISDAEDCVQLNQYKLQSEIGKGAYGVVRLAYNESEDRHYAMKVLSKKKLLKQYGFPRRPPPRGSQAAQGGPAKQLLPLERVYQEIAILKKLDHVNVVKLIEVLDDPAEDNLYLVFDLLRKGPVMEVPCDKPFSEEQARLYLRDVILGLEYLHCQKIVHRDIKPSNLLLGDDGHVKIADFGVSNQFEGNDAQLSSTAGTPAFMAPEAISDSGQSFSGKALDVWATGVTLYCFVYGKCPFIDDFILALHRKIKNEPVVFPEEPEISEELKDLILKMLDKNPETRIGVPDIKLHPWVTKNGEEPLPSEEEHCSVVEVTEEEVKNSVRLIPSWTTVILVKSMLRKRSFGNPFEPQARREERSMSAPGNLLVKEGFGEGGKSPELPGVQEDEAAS

# Series 1 — read-out: cell-free assay; technique: competition with immobilised ligand; concentration: 1 µM
# SMILES: COc1cc(-c2cn(C3CCc4ccccc4N(CC(F)(F)F)C3=O)nn2)ccc1-n1ccc(C)n1 (stereo not shown)
target,remaining binding [%]
"RET (Homo sapiens, UniProt P07949)",91
"Ribosomal protein S6 kinase alpha-1, C-terminal kinase domain (RPS6KA1, Homo sapiens, UniProt Q15418)",95
"MAP3K9 (Homo sapiens, UniProt P80192)",91
"PIK3CG (Homo sapiens, UniProt P48736)",67
"Tyrosine-protein kinase ABL1, non-phosphorylated (ABL1, Homo sapiens, UniProt P00519, Q252H)",90
"CAMKK1 (Homo sapiens, UniProt Q8N5S9)",100
"CDK8 (Homo sapiens, UniProt P49336)",90
"PIK3CA (Homo sapiens, UniProt P42336)",69
"CDK16 (Homo sapiens, UniProt Q00536)",81
"TBK1 (Homo sapiens, UniProt Q9UHD2)",88
"Tyrosine-protein kinase ABL1, phosphorylated (ABL1, Homo sapiens, UniProt P00519, T315I)",70
"EPHA3 (Homo sapiens, UniProt P29320)",95
"PIM3 (Homo sapiens, UniProt Q86V86)",100
"RPS6KB1 (Homo sapiens, UniProt P23443)",100
"Tyrosine-protein kinase ABL1, phosphorylated (ABL1, Homo sapiens, UniProt P00519, F317L)",57
"NEK9 (Homo sapiens, UniProt Q8TD19)",100
"WNK2 (Homo sapiens, UniProt Q9Y3S1)",87
"PHKG1 (Homo sapiens, UniProt Q16816)",80
"OXSR1 (Homo sapiens, UniProt O95747)",91
"EGFR (Homo sapiens, UniProt P00533)",100
"PIM2 (Homo sapiens, UniProt Q9P1W9)",100
"CASK (Homo sapiens, UniProt O14936)",80
"TLK1 (Homo sapiens, UniProt Q9UKI8)",84
"MAPK10 (Homo sapiens, UniProt P53779)",61
"MINK1 (Homo sapiens, UniProt Q8N4C8)",100

# Series 2 — SMILES: Cc1cc(Nc2nc(-c3ccccc3)nc3ccccc23)n[nH]1; read-out: enzyme activity; mode: inhibitor; concentration: 0.5 µM; relative to: control
target,remaining activity [%]
"Protein kinase C beta type, isoform beta-I (PRKCB, Homo sapiens, UniProt P05771)",99.9
"GRK3 (Homo sapiens, UniProt P35626)",106
"DAPK2 (Homo sapiens, UniProt Q9UIK4)",89.5
"IKBKB (Homo sapiens, UniProt O14920)",69.8
"PRKACA (Homo sapiens, UniProt P17612)",97.2
"Cyclin-dependent kinase 4, with cyclin D1 (CDK4, Homo sapiens, UniProt P11802)",100
"MAPK9 (Homo sapiens, UniProt P45984)",92.4
"cGMP-dependent protein kinase 1, isoform beta (PRKG1, Homo sapiens, UniProt Q13976)",94.9
"PRKCA (Homo sapiens, UniProt P17252)",92.2
"TGFBR2 (Homo sapiens, UniProt P37173)",116
"CAMK2D (Homo sapiens, UniProt Q13557)",97.3
"DAPK1 (Homo sapiens, UniProt P53355)",39.1
"CAMKK2 (Homo sapiens, UniProt Q96RR4)",88.6
"STK39 (Homo sapiens, UniProt Q9UEW8)",118
"CHEK2 (Homo sapiens, UniProt O96017)",31.3
"TGFBR1 (Homo sapiens, UniProt P36897)",97.1
"STK10 (Homo sapiens, UniProt O94804)",56.2
"OXSR1 (Homo sapiens, UniProt O95747)",98.1
"IKBKE (Homo sapiens, UniProt Q14164)",67.1
"Cyclin-dependent kinase 5, with p25 (CDK5, Homo sapiens, UniProt Q00535)",98.7
"STK11 (Homo sapiens, UniProt Q15831)",69
"MAP3K3 (Homo sapiens, UniProt Q99759)",82.9
"NEK2 (Homo sapiens, UniProt P51955)",99.3

# Series 3 — SMILES: CCN(c1nc(N)c(C(=O)N=C(N)N)nc1Cl)C(C)C; read-out: β-arrestin recruitment; mode: agonist; technique: PRESTO-Tango; concentration: 10 µM; relative to: untreated
target,fold over basal
"Adhesion G protein-coupled receptor D2 (ADGRD2, Homo sapiens, UniProt Q7Z7M1)",0.71
"Retinoic acid-induced protein 3 (GPRC5A, Homo sapiens, UniProt Q8NFJ5)",0.88
"MC4R (Homo sapiens, UniProt P32245)",1.18
"S1PR5 (Homo sapiens, UniProt Q9H228)",0.44
"GRM5 (Homo sapiens, UniProt P41594)",1.21 fold
"FFAR4 (Homo sapiens, UniProt Q5NUL3)",1.19
"EDNRB (Homo sapiens, UniProt P24530)",1.37
"Adhesion G protein-coupled receptor A2 (ADGRA2, Homo sapiens, UniProt Q96PE1)",1.02
"MCHR1 (Homo sapiens, UniProt Q99705)",1.01

# Series 4 — cell line: HaCaT; concentration: 100 µM; time: 60 h
SMILES,viability [%]
CCCCS(=O)(=O)N[C@@H](Cc1ccc(OCCCCC2CCNCC2)cc1)C(=O)O,115
CN1CCC(=C2c3ccccc3CCn3c(C=O)cnc32)CC1,126
CC(=O)Nc1ccc(CC(=O)O)cc1,160
COc1cc2c(cc1O)[C@@H](Cc1ccc(O)c(Oc3ccc(C[C@@H]4c5cc(OC)c(OC)cc5CCN4C)cc3)c1)N(C)CC2,22.2

# Excerpt of the above (series 2):
target,remaining activity [%]
"CAMK2D (Homo sapiens, UniProt Q13557)",97.3
"DAPK1 (Homo sapiens, UniProt P53355)",39.1
"CAMKK2 (Homo sapiens, UniProt Q96RR4)",88.6
"STK39 (Homo sapiens, UniProt Q9UEW8)",118
"CHEK2 (Homo sapiens, UniProt O96017)",31.3
"TGFBR1 (Homo sapiens, UniProt P36897)",97.1
"STK10 (Homo sapiens, UniProt O94804)",56.2
